Experimental data of several laboratories.
Numbered parts are unrelated; each lists some results of a single study. Positions count from the first letter of the parent shown.

Set 1
Target: CCND2, cyclin fold, Cln2 fusion (human)
Method: yeast growth competition, sequencing
Matrix: yeast
Setting: weak parent motif
Relative to: not given
Direction: higher = stronger binding
Starting sequence: PKMYT1 docking peptide (human); SFEPRNLLSLFED; partner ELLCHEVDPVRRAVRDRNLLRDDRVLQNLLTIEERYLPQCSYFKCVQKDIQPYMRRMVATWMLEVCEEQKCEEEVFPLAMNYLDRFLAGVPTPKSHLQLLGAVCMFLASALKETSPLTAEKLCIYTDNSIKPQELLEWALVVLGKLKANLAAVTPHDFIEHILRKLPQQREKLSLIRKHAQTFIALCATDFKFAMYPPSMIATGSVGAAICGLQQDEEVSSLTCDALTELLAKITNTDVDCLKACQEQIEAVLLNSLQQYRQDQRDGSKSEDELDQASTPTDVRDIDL
For `R5I`, “normalised enrichment score” read 0.394.
For `D13I`, “normalised enrichment score” read 0.0691.
`L7V` — result for “normalised enrichment score”: -0.132.

Set 2
Target: Sal-like protein 4, full length isoform B (SALL4, Homo sapiens, UniProt Q9UJQ4-2, residues 1-616)
Method: universal PBM
Molecule type: double-stranded DNA, one strand shown
Matrix: in vitro
Tested at: not given
Setting: 8-mer, flanks averaged, mean of replicates
Direction: higher = stronger binding
Construct (chain): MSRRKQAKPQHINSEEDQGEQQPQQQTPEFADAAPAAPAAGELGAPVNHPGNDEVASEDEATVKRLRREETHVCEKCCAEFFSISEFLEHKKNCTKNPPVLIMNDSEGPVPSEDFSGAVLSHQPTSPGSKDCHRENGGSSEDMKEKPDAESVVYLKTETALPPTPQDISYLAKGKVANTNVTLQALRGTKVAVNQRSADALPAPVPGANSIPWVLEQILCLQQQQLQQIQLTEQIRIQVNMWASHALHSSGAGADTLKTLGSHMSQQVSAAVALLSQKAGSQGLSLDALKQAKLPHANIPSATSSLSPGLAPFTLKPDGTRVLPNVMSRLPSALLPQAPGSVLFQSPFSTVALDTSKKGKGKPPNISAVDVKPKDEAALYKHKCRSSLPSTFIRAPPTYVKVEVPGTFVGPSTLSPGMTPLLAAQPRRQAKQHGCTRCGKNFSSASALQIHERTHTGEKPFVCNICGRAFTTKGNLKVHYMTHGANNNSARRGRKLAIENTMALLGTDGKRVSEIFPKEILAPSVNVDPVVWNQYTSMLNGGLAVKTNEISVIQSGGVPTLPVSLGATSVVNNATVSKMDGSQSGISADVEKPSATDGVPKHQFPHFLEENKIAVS
For `ACGCGGAC`, the E-score was -0.0868.
The E-score of `CACCTCGC` is reported as -0.258.
For `AGTGCGGA`, the E-score was -0.156.
With `CAAGTGTA` the E-score was 0.172.
`GAGATCTA` has an E-score of -0.0441.
`ACAAAAGA` has an E-score of 0.211.
`ACATCCAA` has an E-score of 0.0655.

Set 3
Target: FOSL1, bZIP domain (human)
Method: DHFR protein complementation
Matrix: yeast
Setting: single substitutions, most at no-binding floor
Relative to: wild-type JUN-FOS pair
Direction: higher = stronger binding
Starting sequence: JUN, bZIP domain (human); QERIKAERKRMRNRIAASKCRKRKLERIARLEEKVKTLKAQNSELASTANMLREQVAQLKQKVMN; partner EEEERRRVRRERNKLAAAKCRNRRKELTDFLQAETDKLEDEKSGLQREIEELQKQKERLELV
With `T48K` the binding fitness was -0.242 natural log.
`L45C` gave a binding fitness of -1.36 natural log.
`E32M` gave a binding fitness of -0.483 natural log.

Single results of other studies
`PhoQ, residues 284 288 289 292 302 303 SNGLAW` gave a fold induction of 8.14 (PhoP, residues 12 14 15 18 19 LHSVW (Escherichia coli, UniProt P23836); Sort-seq, measured: YFP reporter; E. coli; PhoQ-PhoP variant library, added: 10 µM Mg2+; relative to: high Mg2+ state, higher = stronger signaling).
